Results of several laboratories.
Each line is one published result; not all experiments were run side by side. Numbers after ± are the reported error.
Organism: Escherichia coli

SMILES	assay	system	setting	how to read	measurement	result
CC(=O)N[C@@H](CC(C)C)C(=O)N[C@H]1CSSC[C@@H](C(=O)N2CCC[C@H]2C(N)=O)NC(=O)[C@H]([C@@H](C)O)NC(=O)[C@H](C(C)C)NC(=O)[C@H]([C@@H](C)O)NC(=O)CNC(=O)[C@H](CC(C)C)NC(=O)[C@H](Cc2ccccc2)NC(=O)[C@H](Cc2ccc(O)cc2)NC(=O)[C@H](CC(C)C)NC(=O)[C@H](CCCCN)NC(=O)[C@H](Cc2ccccc2)NC(=O)[C@H](CCCNC(=N)N)NC(=O)[C@H](CCC(N)=O)NC(=O)[C@H](CC(C)C)NC(=O)[C@H](CCCCN)NC(=O)[C@@H]2CCCN2C(=O)[C@H](CCCCN)NC(=O)[C@H](C(C)C)NC(=O)[C@H](CCCCN)NC(=O)[C@H](Cc2ccc(O)cc2)NC(=O)[C@H]([C@@H](C)O)NC1=O			2.5 µM, 2 h, 37 °C	reference: untreated	killed bacteria	100%
CC[C@H](C)[C@H](NC(=O)[C@H](Cc1c[nH]c2ccccc12)NC(=O)c1ccccc1)C(=O)N[C@@H](CCCNC(=N)N)C(=O)N[C@@H](Cc1ccc(O)cc1)C(=O)N[C@@H](CCCCN)C(=O)N[C@@H](Cc1c[nH]c2ccccc12)C(=O)N1CCC[C@@H]1C(=O)N[C@@H](CCCNC(=N)N)C(=O)N[C@@H](CCCCN)C(=O)N[C@H](C(=O)N[C@H](C(=O)N[C@@H](CCCNC(=N)N)C(=O)N[C@@H](Cc1ccc(O)cc1)C(=O)N[C@@H](Cc1c[nH]c2ccccc12)C(=O)N[C@H](C(=O)NCC(=O)N1CCC[C@H]1C(N)=O)[C@@H](C)O)C(C)C)C(C)C	growth	DH5α	16 h, 37 °C		IC50	> 100 µM
CC[C@H](C)[C@H](NC(=O)[C@H](CC(C)C)NC(=O)[C@H](CC(=O)O)NC(=O)[C@H](CCCNC(=N)N)NC(=O)[C@H](Cc1c[nH]c2ccccc12)NC(=O)[C@@H](N)CC(C)C)C(=O)N[C@@H](CS)C(=O)N[C@@H](CC(C)C)C(=O)N[C@@H](CS)C(=O)N[C@@H](CCCNC(=N)N)C(=O)N[C@@H](CC(N)=O)C(=O)N[C@@H](CCCNC(=N)N)C(=O)N[C@@H](CCCNC(=N)N)C(=O)N[C@@H](CS)C(=O)N[C@@H](CC(N)=O)C(=O)N[C@@H](CCCNC(=N)N)C(=O)NCC(=O)N[C@@H](CCC(N)=O)C(=O)N[C@@H](CC(C)C)C(=O)N[C@@H](Cc1ccccc1)C(=O)N1CCC[C@H]1C(=O)NCC(=O)N[C@@H](Cc1c[nH]c2ccccc12)C(=O)N[C@@H](CS)C(=O)N1CCC[C@H]1C(=O)NCC(=O)N[C@@H](Cc1c[nH]c2ccccc12)C(=O)N[C@@H](Cc1c[nH]c2ccccc12)C(=O)N[C@@H](CC(C)C)C(=O)N[C@@H](CCCNC(=N)N)C(=O)N[C@@H](CS)C(=O)N[C@@H](CS)C(=O)N[C@@H](CCCNC(=N)N)C(=O)N[C@@H](CCCNC(=N)N)C(N)=O	colony count		50 µg/mL, 2 h, 37 °C, pretreated trypsin intestinal fluid, added: trypsin 1 mg/mL		bactericidal rate	75%
C=C(C)C(=O)NCCCCCCOCc1cn(CCCCCCNC(=O)C(=C)C)nn1	growth, turbidity OD600	ΔtolC	24 h		IC50	> 100 µM
CC[C@H](C)[C@H](NC(=O)[C@H](CCCNC(=N)N)NC(=O)[C@H]1CCCN1C(=O)[C@H](Cc1ccc(O)cc1)NC(=O)[C@@H](NC(=O)[C@@H](NC(=O)[C@H](CCCNC(=N)N)NC(=O)[C@H](Cc1ccccc1)NC(=O)[C@@H](NC(=O)[C@H](Cc1c[nH]c2ccccc12)NC(=O)[C@H](Cc1c[nH]c2ccccc12)NC(=O)c1ccccc1)C(C)C)C(C)C)C(C)C)C(=O)N[C@H](C(=O)N[C@@H](Cc1ccc(O)cc1)C(=O)N[C@H](C(=O)N[C@@H](CCCNC(=N)N)C(=O)N[C@@H](CCCNC(=N)N)C(=O)N[C@@H](CCCNC(=N)N)C(=O)N[C@@H](Cc1c[nH]c2ccccc12)C(=O)N[C@H](C(=O)NCC(=O)N1CCC[C@H]1C(=O)N[C@@H](CCCCN)C(=O)N[C@@H](CCCCN)C(N)=O)[C@@H](C)O)C(C)C)C(C)C	bacterial growth	DH5α	50% growth inhibition		IC50	21.5 µM
O=C1C=CC(=O)N1CCCCOCc1cn(CCCCN2C(=O)C=CC2=O)nn1	growth, turbidity OD600	ΔtolC	24 h		IC50	> 100 µM
CC(N)C(O)CCCCCCCCCCCCCCC(=O)CCCCCCCC(O)C(C)N (stereo not drawn)	resazurin	ATCC 10536	50 µM		growth inhibition	6 ± 0.89%
CCCCCCCCCC(=O)OCCSCCC(=O)N[C@H](CCN)C(=O)N[C@@H](CCN)C(=O)N[C@@H](CCN)C(=O)N[C@@H](CC(C)C)C(=O)N[C@H](Cc1ccccc1)C(=O)N[C@@H](CCN)C(=O)N[C@@H](CCN)C(=O)N[C@@H](CC(C)C)C(N)=O		ATCC 10546	24 h, 37 °C		MBC	8 µM
CC[C@H](C)[C@H](NC(=O)[C@H](C)NC(=O)CNC(=O)[C@H](C)NC(=O)[C@H](CCCCN)NC(=O)[C@H](CO)NC(=O)[C@H](C)NC(=O)[C@H](CCSC)NC(=O)CN)C(=O)N[C@@H](C)C(=O)NCC(=O)N[C@@H](CCCCN)C(=O)N[C@H](C(=O)N[C@@H](C)C(=O)N[C@@H](CCCCN)C(=O)N[C@H](C(=O)N[C@@H](C)C(=O)N[C@@H](CC(C)C)C(=O)N[C@@H](CCCCN)C(=O)N[C@@H](C)C(=O)N[C@@H](CC(C)C)C(N)=O)C(C)C)[C@@H](C)CC		CFT073 ampicillin-resistant	added: ampicillin		combination index	0.91
CC[C@H](C)[C@H](NC(=O)[C@H](Cc1ccccc1)NC(=O)[C@H](CCCCN)NC(=O)[C@H](CCCCN)NC(=O)CNC(=O)[C@H](C)NC(=O)[C@H](CC(N)=O)NC(=O)[C@H](CCCCN)NC(=O)[C@H](Cc1ccccc1)NC(=O)[C@H](CC(N)=O)NC(=O)[C@H](CCC(=O)O)NC(=O)[C@H](Cc1c[nH]c2ccccc12)NC(=O)[C@H](CC(C)C)NC(=O)[C@@H](N)CO)C(=O)N[C@@H](CC(C)C)C(=O)N[C@@H](CC(N)=O)C(=O)N[C@H](C(=O)N[C@@H](CC(C)C)C(=O)N[C@@H](CC(=O)O)C(=O)N[C@@H](CCCCN)C(N)=O)[C@@H](C)CC	time-kill colony count	ATCC 8739	2-4 x MIC		time to 100 % killing	≤ 120 min
CN(C)S(=O)(=O)c1ccc(S(=O)(=O)N2CCC(n3c(=O)[nH]c4ccccc43)CC2)cc1		Keio wild type	concentration not given, 24 h		rifampicin concentration	15.6 µg/mL
C=CCN1C(=O)C(CC=C)(C(=O)OCC)Oc2cc(F)ccc21 (stereo not drawn)	bacterial growth	BL21(DE3)	100 µM, 4 h		OD600	> 0.9
C=CS(=O)(=O)NCCCCCCOCc1cn(CCCCCCNS(=O)(=O)C=C)nn1	growth, turbidity OD600	ΔtolC	24 h		IC50	> 100 µM
CO[C@@H](C(N)=O)[C@H](NC(=O)c1ccc(NC(=O)[C@@H](N)Cc2ccccc2)cc1)C(=O)Nc1ccc(C(=O)Nc2ccc(C(=O)Nc3ccc(C(=O)O)c(O)c3OC(C)C)c(O)c2OC(C)C)cc1		clones expressing transporters	concentration not given	reference: empty vector	MIC fold change	≤ 4 fold
C#CCCCC(=O)N[C@H]1CCOC1=O	LuxR reporter, antagonist	DH5α sensor strain	4 µM, added: OHHL 200 nM		inhibition	65 ± 1%
CC[C@H](C)CCCCC(=O)N[C@@H](CCN)C(=O)N[C@H](C(=O)N[C@@H](CCN)C(=O)N[C@H]1CCNC(=O)[C@H]([C@@H](C)O)NC(=O)[C@H](CCN)NC(=O)[C@H](CCN)NC(=O)[C@H](CC(C)C)NC(=O)[C@@H](CC(C)C)NC(=O)[C@H](CCN)NC1=O)[C@@H](C)O	daily serial passaging	ATCC 8739	highest sub-MIC, 4 days	reference: initial MIC	MIC fold change	1.32
O=C(O)CCc1c(C(=O)O)[nH]c2ccccc12		DH5α with VIM-2 plasmid	100 µg/mL, added: meropenem		MIC of meropenem	2 µg/mL
CSCC[C@H](NC(=O)[C@@H]1CCCN1C(=O)[C@H](CCCNC(=N)N)NC(=O)[C@H](CCCCN)NC(=O)[C@H](CCC(=O)O)NC(=O)[C@H](Cc1ccc(O)cc1)NC(=O)[C@H](CO)NC(=O)[C@H](CS)NC(=O)[C@H](CCCCN)NC(=O)[C@H](CCCCN)NC(=O)CCNC(=O)CCCCCNC(=O)[C@H](CCCNC(=N)N)NC(=O)CCCCCNC(=O)[C@H](CCCNC(=N)N)NC(=O)[C@H](CCCNC(=N)N)NC(=O)CCCCCNC(=O)[C@H](CCCNC(=N)N)NC(=O)[C@H](CCCNC(=N)N)NC(=O)CCCCCNC(=O)[C@H](CCCNC(=N)N)NC(=O)[C@H](CCCNC(=N)N)NC(=O)CCCCCNC(=O)[C@@H](N)CCCNC(=N)N)C(=O)N[C@@H](CS)C(=O)N[C@@H](CCCCN)C(=O)O	crystal violet	ATCC 25922			minimum biofilm inhibitory concentration	1.5 µM
C=CS(=O)(=O)NCCCCOCc1cn(CCCCNS(=O)(=O)C=C)nn1	growth, turbidity OD600	ΔtolC	24 h		IC50	> 100 µM
CC(C)C[C@H](NC(=O)[C@H](Cc1ccccc1)NC(=O)[C@H](CCC(N)=O)NC(=O)[C@H](Cc1ccc(O)cc1)NC(=O)[C@H](CCCCN)NC(=O)[C@@H]1CCCN1C(=O)[C@H](CCCNC(=N)N)NC(=O)[C@H](CCC(N)=O)NC(=O)[C@H](Cc1c[nH]c2ccccc12)NC(=O)[C@H](CS)NC(=O)[C@H](Cc1c[nH]c2ccccc12)NC(=O)[C@H](Cc1ccccc1)NC(=O)[C@H](CCCNC(=N)N)NC(=O)[C@H](CCCCN)NC(=O)[C@H](CCCCN)NC(=O)[C@H](CCCCN)NC(=O)[C@@H](NC(=O)[C@@H](NC(=O)[C@H](CC(C)C)NC(=O)[C@@H](N)CO)C(C)C)[C@@H](C)O)C(=O)O		K12 MG1655			MBC	32 µg/mL
CC[C@H](C)[C@H](N)C(=O)N[C@@H](CC(C)C)C(=O)N[C@@H](CO)C(=O)N[C@@H](C)C(=O)N[C@@H](C)C(=O)N[C@@H](Cc1ccc(O)cc1)C(=O)N[C@@H](CO)C(=O)NCC(=O)N[C@H](C(=O)N[C@H](C(=O)N[C@@H](CO)C(=O)N[C@@H](CC(C)C)C(=O)N[C@H](C(=O)NCCCCCC(=O)N[C@@H](Cc1c[nH]c2ccccc12)C(N)=O)[C@@H](C)CC)[C@@H](C)CC)[C@@H](C)CC		K-12 MG1655, MHB	concentration not given, 37 °C	reference: untreated	relative growth rate	-0.00585
CCCC(=O)OCCSCCC(=O)N[C@H](CCN)C(=O)N[C@@H](CCN)C(=O)N[C@@H](CCN)C(=O)N[C@@H](CC(C)C)C(=O)N[C@H](Cc1ccccc1)C(=O)N[C@@H](CCN)C(=O)N[C@@H](CCN)C(=O)N[C@@H](CC(C)C)C(N)=O		ATCC 10546	24 h, 37 °C		MBC	16 µM
C=C(C)C(=O)NCCCCOCc1cn(CCCCNC(=O)C(=C)C)nn1	growth, turbidity OD600	ΔtolC	24 h		IC50	> 100 µM
O=C(O)CN(CC(=O)O)CP(=O)(O)O		ATCC 25922, no carbapenemase	32 µg/mL, added: meropenem	reference: meropenem alone	fold MIC reduction	≥ 1
